Earlier results that unrelated publications cite.
Lines come from different studies, so protocols differ.

COCCOc1nc(-c2ccc(Cl)nc2)nc2c1CN(C(=O)c1ncn3ccccc13)CC2 — Ki (human PDE10A; biochemical): 1 nM
Cc1cc(C)nc(NC(=S)N2CCN(c3ccncc3)CC2)c1 — inhibition (PHGDH; enzyme activity; concentration not given): no inhibition
CNC(=O)c1ccc(Nc2ncc(C(F)(F)F)c(NCc3nccnc3N(C)S(C)(=O)=O)n2)cc1 — IC50 (FLT1; Cerep selectivity panel): 2500 nM
Cc1sc(N)c(C(=O)c2cccc(C(F)(F)F)c2)c1C — activity class (Toxoplasma gondii; parasite growth; concentration not given, published screen): inactive
CC(=O)N1CCC(c2ccc(C(=O)NC(=N)N)cc2C(F)(F)F)CC1 — IC50 (SLC9A1; biochemical activity): 6 nM
CC(C)Cc1ccc(C(C)C(=O)O)cc1 (centres unmarked) — steady-state concentration (rat, plasma): ~180 µM
C[C@@H](NC(=O)Nc1cc2[nH]ncc2c(CO)n1)c1ccccc1 — IC50 (MAPK1; biochemical): 1.8 nM
CO[C@H]1O[C@@H]2O[C@@]3(C)CC[C@H]4[C@H](C)CC[C@@H]([C@H]1C)[C@@]24OO3 — antiparasitic activity (Toxoplasma gondii; parasite growth; concentration not given): active

A few entries again:
CC(=O)N1CCC(c2ccc(C(=O)NC(=N)N)cc2C(F)(F)F)CC1 — IC50 (SLC9A1; biochemical activity): 6 nM
